Measurements gathered from unrelated publications.
Numbered parts are unrelated; each lists some results of a single study.

Set 1
Target: Interferon regulatory factor 5, full length, phosphomimetic (IRF5, Homo sapiens, UniProt Q13568-2, residues 1-514, K96S/S451D/S453D/S456D/S462D)
Method: protein-binding microarray
Molecule type: double-stranded DNA, one strand shown
Medium: in vitro
Concentration: 250 nM
Notes: 60-bp whole probe
Added: salmon DNA 0.4 mg/ml
Relative to: random background probes
Direction: higher = stronger binding
Shared flanks, not repeated: GCCTAGCAC … GTCTTGATTCGCTTGACGCTGCTG
| Oligonucleotide | log fluorescence [z-score] |
| --- | --- |
| GACGGTATCGGTCTAGGGACGTGCTAG | 6.22 |
| TTAGGTTTCTGGTATCGGTTAGTGCTA | 7.31 |
| GACGGTTTCGGGACTGGGGTCGTGCTA | 4.83 |
| AACCACATAGGAAGAACAACGTGCTAG | 0.0531 |
| TCAATGCTGGCTTTTATACTGTGCTAG | -0.333 |
| GACGTTTTCAGTTTCGAGACGTGCTAG | 7.4 |
| GACGCTATCAGTATCGAGACGTGCTAG | 3.58 |
| TCATTTTAAGTTCTCTGACTGTGCTAG | 0.2 |

Set 2
Target: Sal-like protein 4, full length isoform A (SALL4, Homo sapiens, UniProt Q9UJQ4, residues 1-1053)
UniProt Q9UJQ4, sequence (whole entry, looked up): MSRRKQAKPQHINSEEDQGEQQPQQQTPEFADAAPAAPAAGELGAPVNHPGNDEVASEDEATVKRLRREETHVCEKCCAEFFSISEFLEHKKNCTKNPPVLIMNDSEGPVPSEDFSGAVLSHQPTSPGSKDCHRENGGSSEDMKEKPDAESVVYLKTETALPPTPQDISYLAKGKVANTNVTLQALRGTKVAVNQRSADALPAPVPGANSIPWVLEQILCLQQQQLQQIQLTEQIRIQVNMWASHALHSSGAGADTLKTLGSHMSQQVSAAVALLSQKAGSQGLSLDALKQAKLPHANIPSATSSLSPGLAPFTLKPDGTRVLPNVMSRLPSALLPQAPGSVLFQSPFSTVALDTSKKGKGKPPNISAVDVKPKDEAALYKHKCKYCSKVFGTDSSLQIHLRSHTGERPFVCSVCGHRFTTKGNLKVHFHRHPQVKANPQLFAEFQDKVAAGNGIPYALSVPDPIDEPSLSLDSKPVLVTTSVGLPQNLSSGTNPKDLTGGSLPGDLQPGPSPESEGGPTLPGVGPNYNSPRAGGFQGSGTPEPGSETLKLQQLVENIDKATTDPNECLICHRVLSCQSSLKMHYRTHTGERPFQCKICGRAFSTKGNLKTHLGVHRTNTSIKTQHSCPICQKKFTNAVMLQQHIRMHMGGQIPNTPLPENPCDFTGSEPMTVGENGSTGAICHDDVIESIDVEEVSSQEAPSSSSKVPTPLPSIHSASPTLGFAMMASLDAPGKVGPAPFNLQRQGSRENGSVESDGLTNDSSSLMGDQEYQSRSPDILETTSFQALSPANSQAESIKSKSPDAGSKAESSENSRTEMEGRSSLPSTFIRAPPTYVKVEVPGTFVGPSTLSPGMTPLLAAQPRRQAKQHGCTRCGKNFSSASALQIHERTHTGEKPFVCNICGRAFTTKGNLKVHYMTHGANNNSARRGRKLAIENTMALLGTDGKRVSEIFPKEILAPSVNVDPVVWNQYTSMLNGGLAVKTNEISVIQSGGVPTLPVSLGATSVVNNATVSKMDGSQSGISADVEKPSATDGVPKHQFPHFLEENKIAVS
Method: universal PBM
Molecule type: double-stranded DNA, one strand shown
Medium: in vitro
Concentration: 600 nM
Notes: 8-mer, flanks averaged, mean of replicates
Direction: higher = stronger binding
| Oligonucleotide | E-score |
| --- | --- |
| CCGAAGAG | -0.0853 |
| AAATTCCC | 0.116 |
| CGCGTCCC | -0.372 |
| AGCCTTGG | -0.138 |
| TACCGCAA | 0.0813 |
| CGGACTCA | -0.221 |
| CCGCTTTC | -0.184 |
| AGACCTTA | 0.131 |

Set 3
Target: Replicase polyprotein 1ab, nsp13 helicase (rep, Severe acute respiratory syndrome coronavirus 2, UniProt P0DTD1)
Mode: inhibitor
Concentration: 20 µM
| SMILES | inhibition |
| --- | --- |
| C[C@]12CC[C@@H]3c4ccc(OC(=O)N(CCCl)CCCl)cc4CC[C@H]3[C@@H]1CC[C@@H]2OP(=O)(O)O | -4.64% |
| CN(CC[C@@H](Oc1ccc(-c2ccccc2)cc1)c1ccc(F)cc1)CC(=O)O | 8.04% |
| c1nc2c(NC3CCCCC3)nc(Nc3ccc(N4CCOCC4)cc3)nc2[nH]1 | 10.6% |
| c1ccc(C2CC2)c(OCC2=NCCN2)c1 | 1.53% |
| COc1ccc(NS(=O)(=O)c2sc3ccc(Cl)cc3c2C)cc1N1CCNCC1 | 5.7% |
| CC(=O)NCCCCCC(=O)O | -0.42% |
| CC(C)NCC(O)c1ccc(N)c(C#N)c1 (centres unmarked) | 4.62% |
| Nc1nc(Nc2ccccc2)nc2c1ncn2[C@@H]1O[C@H](CO)[C@@H](O)[C@H]1O | -3.53% |
| O=C(O)[C@@H]1C[C@@H](C2CCCCC2)CN1C(=O)CP(=O)(O)CCCCc1ccccc1 | 4.02% |
| C[C@@H](Nc1cc(F)cc(F)c1)c1cc(C(=O)N(C)C)cc2c(=O)cc(N3CCOCC3)oc12 | 3.07% |
| CC[C@@H](CO)NC(=O)[C@@H]1C=C2c3cccc4[nH]cc(c34)C[C@H]2N(C)C1 | 3.83% |
| CCOc1cccc(NC(=O)c2ccc(N3CCCC3)c(C(F)(F)F)c2)c1 | 13.8% |
| C[C@@H](O)[C@H](N)C(=O)N1CCC[C@H]1C(=O)N1CCC[C@H]1C(=O)N[C@H](C(N)=O)[C@@H](C)O | 5.87% |
| CN(Cc1ccc(C(C)(C)C)cc1)Cc1cccc2ccccc12 | 7.1% |
| Cc1cccc(N(C)C(=S)Oc2ccc3ccccc3c2)c1 | 1.81% |
| CCN(CC)CCn1c(=O)c(Cc2ccc(OC)cc2)nc2ccccc21 | 0.67% |
| C=CC[N@@+]12CC[C@@]34c5ccccc5N5/C=C6/[C@H]7C[C@H]8[C@@]9(CC[N@@+]8(CC=C)C/C7=C/CO)c7ccccc7N(/C=C(/[C@@H](C[C@@H]31)/C(=C\CO)C2)[C@H]54)[C@@H]69 | 7.58% |
| CCN1/C(=C/C(C)=O)Sc2ccc(OC)cc21 | 4.77% |
| Cc1nnsc1C(=O)Nc1ccc(-n2nc(C(F)(F)F)cc2C(F)(F)F)cc1 | 3.51% |
| CC(=O)Nc1ccc(CC(=O)O)cc1 | 4.68% |
| NS(=O)(=O)c1nn2cc(-c3ccccc3)nc2s1 | 9.65% |
| Cc1c(NC(=O)OC[C@@H]2COCCN2)cn2ncnc(Nc3ccc4c(cnn4Cc4cccc(F)c4)c3)c12 | 1.98% |
| O=C(Nc1cc(C(F)(F)F)cc(C(F)(F)F)c1)c1cnc(Cl)nc1C(F)(F)F | 2.97% |
| CC(C)(C)NC[C@H](O)c1ccc(O)c(CO)c1 | -1.72% |
| CNC(=O)c1cc(COc2nnc(Nc3ccc(Cl)cc3)c3ccoc23)ccn1 | 4.84% |

Set 4
Target: Replicase polyprotein 1ab, 3C-like proteinase (rep, Middle East respiratory syndrome-related coronavirus, UniProt K9N7C7)
Observed: enzyme activity
Concentration: 10 µM
| Compound | inhibition [%] |
| --- | --- |
| O=C1C=Cc2cc(Br)ccc2C1=O | 9 |
| Oc1cc2c(cc1O)[C@H]1c3ccccc3CN[C@@H]1CC2 (racemic) | 19 |
| O=c1c2ccccc2[se]n1-c1ccccc1 | 14 |

Set 5
Target: Phosphate system positive regulatory protein PHO4, full length, GST-tagged (PHO4, Saccharomyces cerevisiae, UniProt P07270, residues 1-312)
Method: competition protein-binding microarray
Molecule type: double-stranded DNA, one strand shown
Medium: in vitro
Concentration: 2 µM
Notes: whole 60-bp probe, lowest competitor level
Added: Cbf1 competitor, 0.05 µM
Direction: higher = stronger binding
Construct (chain): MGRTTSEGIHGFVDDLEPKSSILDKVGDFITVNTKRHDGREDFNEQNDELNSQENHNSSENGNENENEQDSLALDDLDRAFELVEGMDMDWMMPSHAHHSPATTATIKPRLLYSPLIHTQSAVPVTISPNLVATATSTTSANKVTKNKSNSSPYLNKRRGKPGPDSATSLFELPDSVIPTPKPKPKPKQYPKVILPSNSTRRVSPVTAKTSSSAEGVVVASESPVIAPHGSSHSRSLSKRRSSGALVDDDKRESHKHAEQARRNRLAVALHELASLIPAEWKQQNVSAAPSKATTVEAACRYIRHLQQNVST
| Oligonucleotide | fluorescence intensity [a.u.] |
| --- | --- |
| AACCAGTCCAAAAGGTACGTGCAATAAAAGAAGTTGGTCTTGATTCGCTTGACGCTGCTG | 7750 |
| ACACAGAGCGGCTGAAGCGTGATGGATGCCCAGGTAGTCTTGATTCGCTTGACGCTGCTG | 5570 |
| TCGATATATAGAAAGCACGATTGCCCAGGAGTTATGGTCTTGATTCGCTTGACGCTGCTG | 6590 |
| GTTATTGGGCTAGGACACGTATGCGAACTACAACCTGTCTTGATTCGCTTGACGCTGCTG | 6310 |
| CGGGGTTAAGTTTTTCACGTGAATTGCTTGCAGCAGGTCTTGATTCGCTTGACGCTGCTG | 8190 |
| CATACCCAACCTTGATGGGTGGGTGAAGATATTTGTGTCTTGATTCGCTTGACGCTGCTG | 4090 |
| CAGCAACTTAGTTTGCACGTGGCCGTCCTCTGTGTGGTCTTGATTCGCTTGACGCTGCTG | 20400 |
| TGCGGCCATAAGCGTCACAGGCCACTCACTGGGAGGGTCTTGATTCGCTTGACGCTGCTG | 3380 |

Set 6
Cell line: HEK-293T/ACE2
Concentration: 10 µM
Time: 16 h
Relative to: vehicle
| SMILES | viability [%] |
| --- | --- |
| CCOc1nc2cccc(C(=O)O)c2n1Cc1ccc(-c2ccccc2-c2nnn[nH]2)cc1 | 97.4 |
| Cc1cccn2c(=O)c(-c3nnn[nH]3)cnc12 | 103 |
| Cn1c(=O)c2c(ncn2CC(O)CO)n(C)c1=O (centres unmarked) | 100 |
| Cc1ccnc(NS(=O)(=O)c2ccc(N)cc2)n1 | 102 |

Repeated from above (set 3):
| SMILES | inhibition |
| --- | --- |
| CC(=O)Nc1ccc(CC(=O)O)cc1 | 4.68% |
| NS(=O)(=O)c1nn2cc(-c3ccccc3)nc2s1 | 9.65% |
| Cc1c(NC(=O)OC[C@@H]2COCCN2)cn2ncnc(Nc3ccc4c(cnn4Cc4cccc(F)c4)c3)c12 | 1.98% |
| O=C(Nc1cc(C(F)(F)F)cc(C(F)(F)F)c1)c1cnc(Cl)nc1C(F)(F)F | 2.97% |
| CC(C)(C)NC[C@H](O)c1ccc(O)c(CO)c1 | -1.72% |
